Published values from different studies.
Parts stem from different laboratories: compare values within a part only. Several values in a cell are separate wells, animals, samples, runs or records.

Block 1
Compound: C#CCN1C(=O)C(O)(C(=O)O)Oc2cc(F)ccc21 (stereo not drawn)
organism | assay | test system | conditions | inhibition
Glycine max | fresh weight | – | soil surface spray, 150 g ai/ha, 21 days, pre-emergence crop safety | 19.8% and 20% and 19.3%
Arabidopsis thaliana | hypocotyl length | Col-0 | 12.5 µg/mL, 7 days, seed germination, dark | 29.6%
Arabidopsis thaliana | hypocotyl length | Col-0 | 25.0 µg/mL, 7 days, seed germination, dark | 41%
Avena fatua | fresh weight | – | 150 g ai/ha, pre-emergence treatment | 100%
Amaranthus retroflexus | fresh weight | – | 150 g ai/ha, post-emergence treatment | 67.5% and 65.3% and 68.6%
Arabidopsis thaliana | hypocotyl length | Col-0 | 100 µg/mL, 7 days, seed germination, dark | 95.8%

Block 2 — host: male CD-1 mouse; route: subcutaneous; dose: dose not given
SMILES: COc1cc(C(=O)OCCCN2CCCN(CCCOC(=O)c3cc(OC)c(OC)c(OCc4ccc([N+](=O)[O-])cc4)c3)CC2)cc(OC)c1OC
test system | conditions | tissue concentration [ng/mL]
dorsal root ganglia | 0.5 h | 369
trigeminal ganglion | 0.5 h | 77.7
dorsal root ganglia | 12 h | 23.1
dorsal root ganglia | 0.1667 h | 641
trigeminal ganglion | 8 h | 34.3
trigeminal ganglion | 0.1667 h | 34.7

Further values, each from its own experiment
Compound | target or system | assay | test system | conditions | endpoint | value
Cn1cc(-c2cccc(CN3CCC4(CC3)COc3c4ccc4c3CN([C@H]3CCC(=O)NC3=O)C4=O)c2)cn1 | – | – | rat | intravenous, 1 mg/kg | Vss | 2.47 L/kg and 3.17 L/kg and 3.24 L/kg
CC[C@H](C)[C@H](NC(=O)[C@H](CO)NC(=O)[C@H](CCCNC(=N)N)NC(=O)[C@H](CCCNC(=N)N)NC(=O)[C@H](C)NC(=O)[C@H](CC(N)=O)NC(=O)[C@@H](N)CO)C(=O)N[C@@H](CC(N)=O)C(=O)N[C@@H](Cc1ccccc1)C(=O)NCC(=O)NCC(=O)N[C@@H](CO)C(=O)N[C@H](C(=O)O)[C@@H](C)O | Cyclin-dependent kinase 2/cyclin E1 (Homo sapiens, UniProt P24864+P24941) | binding, competitive fluorescence polarization | – | together with: FITC-PKN2-RxL peptide tracer | Kd | 30.6 µM
O=C1CCC(N2Cc3c(ccc4c3OCC43CCN(Cc4ccccc4)CC3O)C2=O)C(=O)N1 (stereo not drawn) | CRBN/Zinc finger protein Helios (Homo sapiens, UniProt Q96SW2+Q9UKS7) | degrader, HiBiT | HEK293 | 1111.11 nM | protein remaining | 81.5%

Excerpt of the above (block 2):
test system | conditions | tissue concentration [ng/mL]
trigeminal ganglion | 0.1667 h | 34.7
